Published values collected from several papers.
Each line is one published result; not all experiments were run side by side. Values joined by “and” are separate records of one study, mostly repeats; a detail may differ. Numbers after ± are the reported error.

Cc1ccc(N2C(=O)c3ccccc3NC23C(=O)N(C)c2ccc(Br)cc23)cc1 (centres unmarked) — unbound fraction (human plasma): 0.043 ± 0.005
CCn1cc(-c2ccnc(Nc3ccc(N4CCNCC4)cc3)n2)c(-c2cccnc2)n1 — unbound fraction (human plasma; 10 µM): 0.342
CC(C)Cn1c(SCC(=O)N2CCc3ccccc3C2)nc2cc(Cl)ccc2c1=O — unbound fraction (equilibrium dialysis; rat brain homogenate): 0%
COc1ccc(NC(=O)N2CCCN3CCC(c4ccc(C#Cc5ccccc5)cc4)C3C2)cc1 (centres unmarked) — unbound fraction (equilibrium dialysis; CD-1 mouse plasma; 2 µM): < 0.0001
C=C(C)C(=O)Nc1ccc(-c2c(-c3ccc(Oc4nccc(C)n4)cc3)c3c(N)ncnc3n2C)cc1 — unbound fraction (mouse plasma; 5 µM, 18 h): 0.0096
O=C(O)C(O)Cc1ccc(O)c(OS(=O)(=O)O)c1 (centres unmarked) — unbound fraction (ultrafiltration; rat plasma): 0.32
Nc1ccc(-c2ccc(F)cc2)cc1NC(=O)N1Cc2ccccc2C1 — unbound fraction (brain tissue): 0.02
COc1ccc(CC(O)C(=O)O)cc1O (centres unmarked) — unbound fraction (ultrafiltration; rat plasma): 0.72
COc1ccc(NC(=O)N2CCCN3CCC(c4ccc(C#CC5CCCC5)cc4)C3C2)cc1 (centres unmarked) — unbound fraction (equilibrium dialysis; CD-1 mouse plasma; 2 µM): 0.002
COc1ccc(-c2csc(N/N=C(\C)c3cc(O)cc(O)c3)n2)cc1 — unbound fraction (equilibrium dialysis; human plasma, male; 3 µM, 5 h, pH 7.4): 0% and 0.1% and 0.04% and 0.59%
Cc1ccc(NC(=O)N2CCCN3CCC(c4ccc(C#Cc5cccnc5)cc4)C3C2)cc1 (centres unmarked) — unbound fraction (equilibrium dialysis; CD-1 mouse plasma; 2 µM): 0.001
O=C(c1ccccc1)c1cc(O)c(-c2cc(Cl)cc(Cl)c2)c(O)c1 — unbound fraction (equilibrium dialysis; rat plasma; 500 ng/mL, pH 7.4, 37 °C): 0.0063
Nc1ccc(-c2ccc(F)cc2)cc1NC(=O)C1CCOCC1 — unbound fraction (brain tissue): 0.06
NC[C@@H](C(=O)Nc1ccc(-c2cn[nH]c2)cc1)c1ccccc1 — unbound fraction (rabbit plasma): 0.097
CC1=C(C=O)C(C)(C)CC=C1 — unbound fraction (rapid equilibrium dialysis; rat plasma; 5 to 20 µM, 4 h): 0.08 to 0.13
Nc1ccc(-c2ccc(F)cc2)cc1NC(=O)N1CCOCC1 — unbound fraction (brain tissue): 0.21
CN1C(=O)[C@@H](Cc2ccc(O)c(I)c2)NC(=O)CNC(=O)[C@H](Cc2ccc3ccccc3c2)NC(=O)[C@H](CCCNC(=N)N)NC(=O)[C@H]1CCCNC(=O)c1ccc(CNC(=O)CN2CCN(CC(=O)O)CCN(CC(=O)O)CCN(CC(=O)O)CC2)cc1 [lutetium-177 labelled] — unbound fraction (ultrafiltration; human plasma): < 0.04

Excerpt of the above:
O=C(c1ccccc1)c1cc(O)c(-c2cc(Cl)cc(Cl)c2)c(O)c1 — unbound fraction (equilibrium dialysis; rat plasma; 500 ng/mL, pH 7.4, 37 °C): 0.0063
